Assay results of several laboratories.
Every numbered part comes from another study and shows a few of its results, in no order. Changes are numbered by the printed parent chain.

Series 1
Target: Interferon regulatory factor 7, full length, phosphomimetic (IRF7, Homo sapiens, UniProt Q92985, residues 1-503, S471D/S472D/S475D/S476D/S477D/S483D/S484D/S487D)
Technique: protein-binding microarray
Form: double-stranded DNA, one strand shown
Matrix: in vitro
Concentration: 2200 nM top
Notes: 60-bp whole probe
Added: salmon DNA 0.4 mg/ml
Relative to: random background probes
Direction: higher = stronger binding
Shared flanks, not repeated: GCCTAGCAC … GTCTTGATTCGCTTGACGCTGCTG
Target sequence (chain): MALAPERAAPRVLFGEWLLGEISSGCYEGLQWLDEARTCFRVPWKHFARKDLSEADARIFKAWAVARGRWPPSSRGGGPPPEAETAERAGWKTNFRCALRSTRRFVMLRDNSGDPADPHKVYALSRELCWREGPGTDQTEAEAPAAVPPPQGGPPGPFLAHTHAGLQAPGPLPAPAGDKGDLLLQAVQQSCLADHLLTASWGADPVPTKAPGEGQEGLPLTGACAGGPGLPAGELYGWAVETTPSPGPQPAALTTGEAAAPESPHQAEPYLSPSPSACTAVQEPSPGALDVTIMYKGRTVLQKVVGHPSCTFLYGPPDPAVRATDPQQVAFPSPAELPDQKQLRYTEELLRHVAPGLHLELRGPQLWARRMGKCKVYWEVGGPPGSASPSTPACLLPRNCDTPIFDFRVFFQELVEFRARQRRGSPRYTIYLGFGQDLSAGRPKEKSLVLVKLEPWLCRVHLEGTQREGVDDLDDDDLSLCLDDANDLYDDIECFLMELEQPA
Strand	fitted relative affinity
CTGGCTGGGGTGGTGGCAGTGTGCTAG	-1.41 z-score
GACGGTACCCTTATCCTGACGTGCTAG	0.899 z-score
TTAGGTTTCGGGACTGGGTAAGTGCTA	3.23 z-score
GACGGTTTCTGTATCGGGACGTGCTAG	2.92 z-score
TTAGATCTCAGACTCGATTAGTGCTAG	0.0814 z-score
AACGATTTCAGACTGGAGACGTGCTAG	0.173 z-score
ACTTCCCTCGGGTTGCGGAGCGTGCTA	1.81 z-score
TTAGAACAGAGACTGGATTAGTGCTAG	-0.883 z-score
GACGGTTCCGGTTGCGGGACGTGCTAG	0.907 z-score
GACGAAGTGGGGTTTCGAGACGTGCTA	1.03 z-score
GACGGTTTCCTTTTCCTGAGGTGCTAG	4.96 z-score
CTAGGACTGCTTCTCCTTTAGTGCTAG	0.703 z-score

Series 2
Target: RING finger protein unkempt homolog, zinc fingers 1-6, GST-SBP tag (UNK, Homo sapiens, UniProt Q9C0B0, residues 30-357)
Sequence of UniProt Q9C0B0 (30-357, looked up): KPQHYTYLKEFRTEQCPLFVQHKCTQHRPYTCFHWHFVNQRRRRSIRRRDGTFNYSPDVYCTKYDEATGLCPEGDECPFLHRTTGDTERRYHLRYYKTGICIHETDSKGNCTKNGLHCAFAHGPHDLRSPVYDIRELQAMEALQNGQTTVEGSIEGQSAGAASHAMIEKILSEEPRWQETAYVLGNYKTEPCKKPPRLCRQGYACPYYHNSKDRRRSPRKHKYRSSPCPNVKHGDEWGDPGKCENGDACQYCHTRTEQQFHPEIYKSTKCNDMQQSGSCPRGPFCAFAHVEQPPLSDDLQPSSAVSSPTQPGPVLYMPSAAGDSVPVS
Technique: RNA Bind-n-Seq
Form: RNA
Matrix: in vitro
Concentration: not given
Notes: RNA with constant flanks, human-mouse chimeric sites, ends assumed
Relative to: input RNA pool
Direction: higher = stronger binding
Shared flanks, not repeated: GGGAGUUCUACAGUCCGACGAUC … CAACAGAGGAUUGAGCAUCA
Strand	bound/input enrichment [ratio]
UGGCGCCUGCGCUCCCCACUCGUGUUUUUAAGUGUAUUUUUAUAAGAUACAUGUAUUUACAAUUGAGUUUUUGAUUAAUAAUGCUGAAAUGCUACUGGAGAUUAUGAAAAAUGUUUCAAU	0.147
GAAUCCUACUCAGGCGGAUUUUGCAACCUGAAUGCAACAGCAGCAGCAUCUUAGUCACAGUAGGGUAGUUUUGGGGCUCUGUGGCCAGGGUUUUAUUCAUGUGCAGGUUUGGAAAAUGUA	1.1
AACAGAUUGUCUUUAAGCAUUCCAAGCGAGAAUGCUGAAAUAGUCAUUGUUGCCCAUGUGCCUUCUGACUGAGCUUUAAUGCUGUUCCAUGUUACAUUGAUGUUCUUCUCCAGAAUUGUU	0.213
UACUCAACUUUCUUGCCACAUUUUGAAUUCCAAGACAUUAUCCCUCCAGAUGACUUCCUAACGAGUGAUGAAGAGCAAGAUUUGGUUUUAUUUGGAACUAUGAGAGGACAAGUUGUUGGA	0.168
GCCACCAGAUCCCAGAAACAUGACUCUUGCAGCCUAUAAAGAGAAGAUGAAGGAGCUCCCGCUGGUGUCCUUGUUCUGCUCCUGCUUCCUGGCCGAUCCCCUGAAUAAGUCGUCCUACAA	0.278
AAAGUGGACUAUGGCGAGUACAUGGAUAAAAACAAUGUGAGGCGACAAGCAACAACAAUCAUAGCUGAUAACAUUAUAUUUCUGAGUGACCAGACGAAAGAAAAGGCAUAGAACGGAUGA	1.37
GCAAGAGAUGAUGAGGCGGCAGCUGUUGCCCUUUCCUCUCUCGUUCAUGCUUUGGAUGAGUUAAACAUGGUCGCCAUAGUUCGAUAUGCUUAUGACAAAAGAUCUAAUCCUCAAGUUGGU	0.284
UCUGGCCACACUCGUGUGUAUGGUGUUUGCUUUGUGGACACUUCACUGGGAAAGUUUUUCAUCGGCCAGUUUUCGGAUGACCGCCACUGUUCCAGAUUUAGGACGCUAGUGGCUCACUAU	0.184

Series 3
Target: Centromere-binding protein 1, full length, N-terminal tag (CBF1, Saccharomyces cerevisiae, UniProt P17106, residues 1-351)
Sequence of UniProt P17106 (whole entry, looked up): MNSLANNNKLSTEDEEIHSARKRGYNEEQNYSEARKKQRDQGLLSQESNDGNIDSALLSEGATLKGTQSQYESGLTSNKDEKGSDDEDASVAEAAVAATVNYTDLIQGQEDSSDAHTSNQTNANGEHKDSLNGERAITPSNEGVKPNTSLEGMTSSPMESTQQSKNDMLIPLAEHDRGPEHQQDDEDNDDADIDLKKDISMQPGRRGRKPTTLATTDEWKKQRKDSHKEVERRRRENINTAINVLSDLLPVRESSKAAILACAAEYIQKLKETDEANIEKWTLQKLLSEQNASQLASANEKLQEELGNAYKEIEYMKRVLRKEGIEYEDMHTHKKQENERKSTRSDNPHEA
Technique: protein-binding microarray
Form: double-stranded DNA, one strand shown
Matrix: in vitro
Concentration: 0.8 µM
Notes: whole 60-bp probe, no competitor
Direction: higher = stronger binding
Shared flanks, not repeated: … GTCTTGATTCGCTTGACGCTGCTG
Strand	fluorescence intensity [a.u.]
GAATTGCGGTTTTGTCACCTTAGTCAGCTAGTATAG	560
CTACCTACGCTCTTTCACGTTTGTGCTGATAGATTC	562
GAATATATATATAAGCACGGGCGCATGGGAGATTAG	790
GAATTCTTACTAAATCACGTGACAAGAGGCGGATAG	34500
CTACGAGCCAAGTGACACCAGCAAACAAGGAAATTC	558
CCTAACTACTATACTGGTGATTTATAGCTTCGTACA	531
CTATATTACAAGTGTGTCACCATTTCCGGCCCATTC	545
GAAATGTTTATGTGTCACCTCTTGCTTGCGTCTTAG	542
GAAAATTACCCATAAACCACCACCTAGTGTCAATAG	528
GAAAAGCTATTCAACCACGTGAAGATAGCAGGGTAG	3580
GAATAAAAGAATAGACACGTTTAAGGTATATTTTAG	572
CTAATATAACACTCTGATGCAGATTTATGAATATTC	504
TGTACGAAGCTATATGATGATATTATAGTAGTTAGG	570
CTAGAACTCCGCCATCATGTGCTCAAGACTAGATTC	1120
GAAACGTAATATGTACACATGATTTTTTTTCTTTAG	1120
GAAGTCATTCTACATCATGAATATTAATTTACCTAG	536
GAAAAAAAAAGACGCACCGTGACTTCAAGAGCTTAG	827
CCTAACTACTATAGACACATCACATAGCTTCGTACA	502
GAAACTGTCACGATTGACCTGATGCAAAGGAAATAG	822
GAATAATAAATACGTGACACAGCGTATAAGAAATAG	1080
GAATATGGTTATTCTGATGTTACTGGTAGTCGTTAG	486
CTATATAAGTTTTTTCACGTTTTTGATTTTTCCTTC	628
GAAATAAGGGATAGTGGCATCACGAGAAGCTGTTAG	705
CTATCCATTTATATAAACGTGTGCATATTAATGTTC	763
CTAGCTTTAAGGGTCAAGGTGGTGGAAAACTTGTTC	542

Series 4
Target: ABI1, truncated, D143A, DHFR fusion (Arabidopsis thaliana)
Technique: DHFR PCA, deep sequencing
Matrix: yeast
Notes: methotrexate growth selection, single substitutions
Added: (+)-ABA 58 µM
Relative to: wild-type fitted maximum
Direction: higher = stronger binding
Starting sequence: PYL1, truncated, DHFR fusion (Arabidopsis thaliana); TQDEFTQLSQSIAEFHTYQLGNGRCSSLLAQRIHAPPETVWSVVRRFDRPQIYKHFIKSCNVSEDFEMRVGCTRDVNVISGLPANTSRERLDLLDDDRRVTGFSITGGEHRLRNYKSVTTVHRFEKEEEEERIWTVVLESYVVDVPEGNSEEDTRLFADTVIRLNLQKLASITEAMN; partner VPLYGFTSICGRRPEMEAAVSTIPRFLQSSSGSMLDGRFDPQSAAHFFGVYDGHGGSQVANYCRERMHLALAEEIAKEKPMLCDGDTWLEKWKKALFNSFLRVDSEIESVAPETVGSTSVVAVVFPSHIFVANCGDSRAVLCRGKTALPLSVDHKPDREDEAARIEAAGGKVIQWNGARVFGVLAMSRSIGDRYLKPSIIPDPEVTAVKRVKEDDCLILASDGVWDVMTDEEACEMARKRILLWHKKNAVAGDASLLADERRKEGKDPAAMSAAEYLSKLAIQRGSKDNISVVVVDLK
Substitution	relative binding score [%]
I57D	2.69
S9M	77.7
E67Y	74
S9P	53.7
V100K	-2.94
R46V	45.3
I162H	10.7
T1R	84.3
S42T	77.6
A170G	73.2
M68G	68.6
H122D	57.4
L91D	-11.9
V145C	71.2
D65F	72
T1H	94.2
L28E	2.74
L169N	-8.8
Q19T	89.4
L112F	76.2
L156E	70.9
E125I	98.8

Series 5
Target: CCND3, cyclin fold, Cln2 fusion (human)
Technique: yeast growth competition, sequencing
Matrix: yeast
Notes: weak parent motif
Relative to: not given
Direction: higher = stronger binding
Starting sequence: SAMHD1 docking peptide (human); ASKSRVQLFKDDP; partner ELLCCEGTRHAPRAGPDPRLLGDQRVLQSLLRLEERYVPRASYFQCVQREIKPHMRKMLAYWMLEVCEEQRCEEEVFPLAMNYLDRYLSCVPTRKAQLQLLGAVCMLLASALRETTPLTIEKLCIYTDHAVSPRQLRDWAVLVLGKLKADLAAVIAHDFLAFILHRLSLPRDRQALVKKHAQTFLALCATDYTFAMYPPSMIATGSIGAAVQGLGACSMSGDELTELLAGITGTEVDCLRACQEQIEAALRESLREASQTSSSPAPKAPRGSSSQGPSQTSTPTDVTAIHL
Substitution	normalised enrichment score
ASKSRVQLFVDDP [K10V]	-0.0396
ASKSRVQLLKDDP [F9L]	0.0115
ASKSRVQLNKDDP [F9N]	0.361
ASKSRVQLFKDAP [D12A]	0.167
ASKSRVQLFKYDP [D11Y]	0.141
ASKSRVQLTKDDP [F9T]	0.0731
ASKSRVQLFFDDP [K10F]	-0.754
ASKSRVQAFKDDP [L8A]	-0.168
ASKSRVQLFIDDP [K10I]	0.187
ASKSRVQLFADDP [K10A]	0.0182
ASKSRVLLFKDDP [Q7L]	-0.0137
AAKSRVQLFKDDP [S2A]	0.191
ASKSRVQIFKDDP [L8I]	0.109
ASKSRVQLRKDDP [F9R]	-0.0483
ASKSRVQLFKSDP [D11S]	0.535
ASKSRVQLFKDVP [D12V]	0.566
ASKSRVQLFKGDP [D11G]	0.624

Series 6
Target: Histone acetyltransferase KAT6A, winged helix 1, GST fusion (KAT6A, Homo sapiens, UniProt Q92794, residues 1-85)
Technique: protein binding microarray
Form: double-stranded DNA, one strand shown
Matrix: in vitro
Concentration: not given
Notes: 8-mer, flanks averaged, mean of 2 arrays, mostly near background
Relative to: not given
Direction: higher = stronger binding
Residues (chain): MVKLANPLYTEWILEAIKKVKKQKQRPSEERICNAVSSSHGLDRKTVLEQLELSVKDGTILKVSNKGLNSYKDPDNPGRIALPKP
Strand	E-score
AAAATATT	-0.121
CGAGGGCA	-0.0356
CGTGAGAA	0.0426
CCGTAAAC	0.293
ATAGGGTG	-0.211
GAAGGCTC	-0.156
ACTGCACT	-0.168
CAGCGCGC	0.443
GATGCGGA	0.223
AAGGTACA	-0.189
ATAGGCCG	0.231
CCTATTCG	-0.0568
CTAGTATA	-0.0221
ATGCTGCG	0.112
AGACAAAC	-0.224
GTTCACGA	-0.106
CTAAAGAG	-0.148
TATATGCA	-0.0796
ACTCTGTG	-0.0546
TGGAAAAA	-0.0687

Series 7
Target: Prothrombin, mature alpha-thrombin (F2, Homo sapiens, UniProt P00734)
Technique: aptamer microarray, sandwich
Form: DNA with 2'F-ANA
Matrix: in vitro
Concentration: 200 nM
Notes: whole 15-mer aptamer, many near background
Added: Cy3 exosite-II aptamer, 400 nM
Direction: higher = stronger binding
Strand: GGTTGGTGTGGTTGG
Modification	mean fluorescence intensity
2'F-ANA at 1 2 4 5 6 7 8 9 11 13 15	56.7 a.u.
2'F-ANA at 1 2 3 4 7 9 10 12 14 15	50.1 a.u.
2'F-ANA at 1 4 5 7 8 9 11 13 14 15	58.9 a.u.
2'F-ANA at 2 3 6 7 9 10 13 14 15	196 a.u.
2'F-ANA at 1 3 4 6 7 10 12 14	55.5 a.u.
2'F-ANA at 4 5 6 7 8 10 13	42.2 a.u.
2'F-ANA at 1 2 5 6 7 14	69.5 a.u.
2'F-ANA at 1 2 4 5 7 9 11 13 14	65 a.u.
2'F-ANA at 3 6 9 14 15	509 a.u.
2'F-ANA at 1 2 4 5 6 9 11 12 13 14 15	67.3 a.u.
2'F-ANA at 2 3 4 6 7 9 12 13 15	437 a.u.
2'F-ANA at 1 2 3 7 9 10 11 13 14 15	53.7 a.u.
2'F-ANA at 2 5 7 8 9 12 13 15	120 a.u.
2'F-ANA at 1 3 6 7 9 12	443 a.u.
2'F-ANA at 4 6 9 12 14	99.1 a.u.
2'F-ANA at 1 3 5 6 8 9 15	74 a.u.
2'F-ANA at 1 2 4 5 7 8 13	52.6 a.u.
